Measured values from different studies.
Every numbered part comes from another study and shows a few of its results, in no order. Values joined by “and” are separate records of one study, mostly repeats; a detail may differ.
Sequence of UniProt P78362 (whole entry, looked up): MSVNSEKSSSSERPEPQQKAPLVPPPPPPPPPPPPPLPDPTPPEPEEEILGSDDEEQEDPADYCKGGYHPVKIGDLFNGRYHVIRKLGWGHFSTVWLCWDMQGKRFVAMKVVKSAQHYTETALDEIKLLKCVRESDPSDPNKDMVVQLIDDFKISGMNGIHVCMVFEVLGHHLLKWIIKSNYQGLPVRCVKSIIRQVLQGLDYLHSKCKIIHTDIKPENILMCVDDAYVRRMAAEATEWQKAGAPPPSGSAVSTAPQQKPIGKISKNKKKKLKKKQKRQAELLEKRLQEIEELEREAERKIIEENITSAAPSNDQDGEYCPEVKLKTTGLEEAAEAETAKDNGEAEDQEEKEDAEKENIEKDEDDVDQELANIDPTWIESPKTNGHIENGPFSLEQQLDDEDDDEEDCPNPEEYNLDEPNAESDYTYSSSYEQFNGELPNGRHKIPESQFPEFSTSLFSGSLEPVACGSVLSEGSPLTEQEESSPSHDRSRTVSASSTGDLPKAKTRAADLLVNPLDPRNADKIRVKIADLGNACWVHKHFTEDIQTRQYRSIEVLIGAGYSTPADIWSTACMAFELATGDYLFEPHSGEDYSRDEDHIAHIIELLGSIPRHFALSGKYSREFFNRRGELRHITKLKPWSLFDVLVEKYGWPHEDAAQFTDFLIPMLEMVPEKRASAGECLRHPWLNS
Sequence of UniProt O75460 (whole entry, looked up): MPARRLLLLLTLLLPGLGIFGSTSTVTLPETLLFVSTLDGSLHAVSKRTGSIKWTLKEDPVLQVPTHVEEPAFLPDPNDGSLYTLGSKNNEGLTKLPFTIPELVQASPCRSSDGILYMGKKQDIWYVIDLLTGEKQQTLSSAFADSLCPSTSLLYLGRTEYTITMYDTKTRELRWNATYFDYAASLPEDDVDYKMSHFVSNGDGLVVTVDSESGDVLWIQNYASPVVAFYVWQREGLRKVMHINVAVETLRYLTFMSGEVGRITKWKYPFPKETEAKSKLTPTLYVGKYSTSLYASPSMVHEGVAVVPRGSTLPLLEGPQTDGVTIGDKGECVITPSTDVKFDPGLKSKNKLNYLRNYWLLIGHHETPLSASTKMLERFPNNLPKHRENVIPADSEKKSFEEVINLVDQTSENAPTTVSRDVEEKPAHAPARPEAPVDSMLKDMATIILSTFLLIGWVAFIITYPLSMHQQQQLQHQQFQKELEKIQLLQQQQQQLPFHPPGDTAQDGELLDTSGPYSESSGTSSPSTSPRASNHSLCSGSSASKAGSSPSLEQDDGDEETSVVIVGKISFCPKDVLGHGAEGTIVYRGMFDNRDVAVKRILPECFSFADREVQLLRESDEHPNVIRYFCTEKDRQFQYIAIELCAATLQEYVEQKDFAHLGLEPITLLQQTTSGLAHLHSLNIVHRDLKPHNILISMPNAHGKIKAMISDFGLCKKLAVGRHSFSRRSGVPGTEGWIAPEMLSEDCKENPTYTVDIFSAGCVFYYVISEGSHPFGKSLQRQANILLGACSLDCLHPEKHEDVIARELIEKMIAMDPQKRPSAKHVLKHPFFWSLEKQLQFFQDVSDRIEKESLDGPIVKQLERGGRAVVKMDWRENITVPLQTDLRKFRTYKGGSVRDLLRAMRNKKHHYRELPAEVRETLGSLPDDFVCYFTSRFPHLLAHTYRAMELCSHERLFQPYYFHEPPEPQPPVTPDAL
Sequence of UniProt Q00526 (whole entry, looked up): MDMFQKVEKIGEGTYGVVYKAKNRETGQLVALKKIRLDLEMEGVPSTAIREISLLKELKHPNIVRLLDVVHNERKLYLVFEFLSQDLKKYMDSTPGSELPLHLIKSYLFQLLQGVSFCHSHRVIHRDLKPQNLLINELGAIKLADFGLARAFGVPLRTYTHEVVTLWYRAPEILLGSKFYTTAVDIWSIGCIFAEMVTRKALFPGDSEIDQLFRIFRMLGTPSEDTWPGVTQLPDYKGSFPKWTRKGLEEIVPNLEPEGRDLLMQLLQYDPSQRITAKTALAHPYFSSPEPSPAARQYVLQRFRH

Block 1 — effect on: enzyme activity; action: inhibitor; concentration: 77 µM; relative to: untreated
Target: DNA polymerase theta, ATPase domain (POLQ, Homo sapiens, UniProt O75417)
Sequence of UniProt O75417 (whole entry, unmodified, looked up): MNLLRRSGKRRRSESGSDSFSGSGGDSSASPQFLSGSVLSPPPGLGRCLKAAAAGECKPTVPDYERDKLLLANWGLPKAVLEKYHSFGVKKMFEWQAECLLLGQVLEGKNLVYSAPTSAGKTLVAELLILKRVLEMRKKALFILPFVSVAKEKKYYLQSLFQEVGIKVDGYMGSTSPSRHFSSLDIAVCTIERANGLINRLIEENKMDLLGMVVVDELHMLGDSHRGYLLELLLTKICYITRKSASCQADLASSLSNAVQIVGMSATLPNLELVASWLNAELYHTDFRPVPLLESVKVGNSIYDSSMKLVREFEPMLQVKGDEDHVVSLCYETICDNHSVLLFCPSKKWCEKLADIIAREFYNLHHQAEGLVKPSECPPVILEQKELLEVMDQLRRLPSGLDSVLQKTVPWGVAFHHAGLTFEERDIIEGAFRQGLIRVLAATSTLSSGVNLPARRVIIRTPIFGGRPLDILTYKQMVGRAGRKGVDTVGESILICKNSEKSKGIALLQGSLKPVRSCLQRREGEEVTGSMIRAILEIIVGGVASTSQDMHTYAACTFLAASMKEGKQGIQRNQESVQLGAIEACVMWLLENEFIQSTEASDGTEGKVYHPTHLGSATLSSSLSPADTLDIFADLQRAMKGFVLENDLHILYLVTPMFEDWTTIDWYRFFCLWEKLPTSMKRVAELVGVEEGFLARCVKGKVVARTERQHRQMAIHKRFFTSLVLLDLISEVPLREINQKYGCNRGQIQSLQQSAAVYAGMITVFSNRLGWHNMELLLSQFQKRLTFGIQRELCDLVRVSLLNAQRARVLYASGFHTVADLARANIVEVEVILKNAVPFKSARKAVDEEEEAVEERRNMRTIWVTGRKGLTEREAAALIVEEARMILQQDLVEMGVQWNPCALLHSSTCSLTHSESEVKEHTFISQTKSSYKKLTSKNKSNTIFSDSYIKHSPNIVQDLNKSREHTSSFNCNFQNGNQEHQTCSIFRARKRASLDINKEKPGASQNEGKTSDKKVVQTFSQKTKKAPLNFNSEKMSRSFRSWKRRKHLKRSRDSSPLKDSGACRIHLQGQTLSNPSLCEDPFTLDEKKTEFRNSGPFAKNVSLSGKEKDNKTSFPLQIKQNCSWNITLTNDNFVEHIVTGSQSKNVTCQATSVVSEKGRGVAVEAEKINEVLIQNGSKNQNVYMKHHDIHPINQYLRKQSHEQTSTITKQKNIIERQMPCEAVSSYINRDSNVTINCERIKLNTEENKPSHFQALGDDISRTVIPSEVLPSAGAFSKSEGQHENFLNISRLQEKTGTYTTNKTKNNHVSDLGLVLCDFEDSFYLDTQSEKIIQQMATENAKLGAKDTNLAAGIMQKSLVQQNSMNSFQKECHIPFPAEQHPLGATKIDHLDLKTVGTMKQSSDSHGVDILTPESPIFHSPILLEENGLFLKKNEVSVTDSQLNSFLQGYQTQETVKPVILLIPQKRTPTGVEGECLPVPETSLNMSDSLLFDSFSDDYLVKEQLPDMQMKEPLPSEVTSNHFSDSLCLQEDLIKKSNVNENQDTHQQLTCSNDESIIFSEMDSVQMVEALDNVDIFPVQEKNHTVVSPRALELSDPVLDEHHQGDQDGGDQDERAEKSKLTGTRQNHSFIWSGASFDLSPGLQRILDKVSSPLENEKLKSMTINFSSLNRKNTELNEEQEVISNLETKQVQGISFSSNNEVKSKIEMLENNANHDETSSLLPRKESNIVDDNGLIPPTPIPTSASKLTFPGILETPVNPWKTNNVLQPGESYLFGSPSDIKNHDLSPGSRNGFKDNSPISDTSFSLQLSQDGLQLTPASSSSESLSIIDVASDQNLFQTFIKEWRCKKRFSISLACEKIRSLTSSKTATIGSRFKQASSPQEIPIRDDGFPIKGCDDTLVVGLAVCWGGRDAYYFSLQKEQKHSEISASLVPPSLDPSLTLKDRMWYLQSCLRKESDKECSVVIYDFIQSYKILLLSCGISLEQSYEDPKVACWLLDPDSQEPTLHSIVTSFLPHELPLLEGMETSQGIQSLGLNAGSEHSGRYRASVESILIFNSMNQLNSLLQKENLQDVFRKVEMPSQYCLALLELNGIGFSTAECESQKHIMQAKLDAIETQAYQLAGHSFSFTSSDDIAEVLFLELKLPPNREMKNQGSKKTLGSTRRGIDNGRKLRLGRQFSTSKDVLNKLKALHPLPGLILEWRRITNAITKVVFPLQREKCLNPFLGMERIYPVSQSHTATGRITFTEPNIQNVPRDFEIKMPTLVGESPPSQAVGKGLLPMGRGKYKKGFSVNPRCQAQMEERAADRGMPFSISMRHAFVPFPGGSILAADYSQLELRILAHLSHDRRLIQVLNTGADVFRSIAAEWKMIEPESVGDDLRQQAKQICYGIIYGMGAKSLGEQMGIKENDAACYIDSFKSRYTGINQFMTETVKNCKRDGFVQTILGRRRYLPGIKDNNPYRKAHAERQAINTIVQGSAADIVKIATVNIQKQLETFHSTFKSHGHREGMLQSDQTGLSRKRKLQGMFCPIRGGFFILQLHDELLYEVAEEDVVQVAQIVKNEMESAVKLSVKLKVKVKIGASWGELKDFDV
| SMILES | remaining activity |
| --- | --- |
| CNC(=O)[C@H](Cc1c[nH]c2ccccc12)NC(=O)[C@@H](CC(=O)NO)CC(C)C | 99.1% |
| c1ccc(CNc2ncnc3nc[nH]c23)cc1 | 97.2% |
| CN(C/C=C/c1ccccc1)Cc1cccc2ccccc12 | 102% |
| COc1cc2c(Oc3ccc(NC(=O)C4(C(=O)Nc5ccc(F)cc5)CC4)cc3F)ccnc2cc1OCCCN1CCOCC1 | 96.6% |
| CN1CC(=O)N2[C@H](c3ccc4c(c3)OCO4)c3[nH]c4ccccc4c3C[C@@H]2C1=O | 102% |
| CCCCCCCC/C=C\CCCCCCCC(=O)NCCO | 98.5% |
| COCC(=O)NC/C=C/c1ccc2ncnc(Nc3ccc(Oc4ccc(C)nc4)c(C)c3)c2c1 | 105% and 104% and 106% |
| O=S(=O)(c1ccccc1)c1cnc2c(N3CCNCC3)cccc2c1 | 101% |
| O=C(O)c1ccccc1C(=O)Nc1ccc(S(=O)(=O)Nc2nccs2)cc1 | 96.9% |

Block 2 — effect on: enzyme activity; action: inhibitor; concentration: 0.5 µM; relative to: control
Target: Serine/threonine-protein kinase D3 (PRKD3, Homo sapiens, UniProt O94806)
Target sequence (O94806 1-890): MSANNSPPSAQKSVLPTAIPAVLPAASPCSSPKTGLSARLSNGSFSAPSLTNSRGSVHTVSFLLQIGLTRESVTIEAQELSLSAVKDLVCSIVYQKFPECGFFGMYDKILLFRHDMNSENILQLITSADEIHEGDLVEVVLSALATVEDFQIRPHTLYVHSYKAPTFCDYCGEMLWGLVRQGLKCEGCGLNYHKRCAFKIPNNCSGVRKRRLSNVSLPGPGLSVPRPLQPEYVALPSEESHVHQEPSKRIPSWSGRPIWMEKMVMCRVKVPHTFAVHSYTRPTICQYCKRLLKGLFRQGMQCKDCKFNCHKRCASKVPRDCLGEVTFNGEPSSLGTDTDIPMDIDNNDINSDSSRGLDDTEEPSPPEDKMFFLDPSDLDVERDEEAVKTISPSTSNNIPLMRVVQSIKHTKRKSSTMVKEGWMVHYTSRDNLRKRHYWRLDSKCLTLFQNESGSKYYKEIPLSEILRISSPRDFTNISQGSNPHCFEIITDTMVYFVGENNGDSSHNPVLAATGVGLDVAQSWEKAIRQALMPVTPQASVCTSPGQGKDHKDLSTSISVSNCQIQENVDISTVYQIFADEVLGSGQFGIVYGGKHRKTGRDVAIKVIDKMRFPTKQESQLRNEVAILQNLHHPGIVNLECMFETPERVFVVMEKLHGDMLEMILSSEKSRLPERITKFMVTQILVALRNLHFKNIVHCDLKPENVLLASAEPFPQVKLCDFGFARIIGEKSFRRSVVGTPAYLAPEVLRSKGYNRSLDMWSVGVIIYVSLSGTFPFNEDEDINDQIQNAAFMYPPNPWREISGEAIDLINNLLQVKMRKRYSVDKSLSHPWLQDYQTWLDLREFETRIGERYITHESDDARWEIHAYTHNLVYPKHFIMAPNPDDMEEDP
| SMILES | remaining activity [%] |
| --- | --- |
| Cc1cn(-c2cc(NC(=O)c3ccc(C)c(Nc4nccc(-c5cccnc5)n4)c3)cc(C(F)(F)F)c2)cn1 | 89.4 |
| O=c1cc(-c2cccc3c2Sc2ccccc2S3)oc(N2CCOCC2)c1 | 83.4 |
| CN(C)C[C@H]1CCn2c(c(C3=C(c4cn(C)c5ccccc45)C(=O)NC3=O)c3ccccc32)C1 | 93.6 |
| C[C@@H]1CCN(C(=O)CC#N)C[C@@H]1N(C)c1ncnc2[nH]ccc12 | 89.8 |
| O=C1c2ccccc2-c2n[nH]c3cccc1c23 | 31.2 |
| c1ccc(-c2[nH]ncc2-c2ccnc3ccccc23)nc1 | 56.1 |
| Cc1cc2ncc(-c3ccccc3)nc2cc1C | 92.2 |
| COc1cc2ncnc(Nc3ccc(O)c(Br)c3)c2cc1OC | 72.8 |
| CCN(CC)CCNC(=O)c1c(C)[nH]c(/C=C2\C(=O)Nc3ccc(Cl)cc32)c1C | 8.04 |
| COc1cc2c(cc1OC)-c1[nH]nc(Nc3cccc(F)c3)c1C2 | 93.1 |
| c1ccc(-c2cnc(Nc3ccc(OCCN4CCCC4)cc3)s2)cc1 | 74 |
| Nc1cccc(-c2cc3c(Oc4cccc(O)c4)ncnc3[nH]2)c1 | 91 |
| Cn1nc2c3c(cccc31)C(=O)c1ccccc1-2 | 65.5 |
| O=C(Nc1cccc(Nc2nccc(Nc3cccc(C(F)(F)F)c3)n2)c1)C1CC1 | 91.8 |
| Cc1nc2cc3nc(-c4cccs4)cnc3cc2n1C | 97.1 |
| O=C1C(Cl)=C(N2C(=O)CCC2=O)C(=O)c2ccccc21 | 88.2 |
| O=C(NC(NC(=S)Nc1ccc(F)c([N+](=O)[O-])c1)C(Cl)(Cl)Cl)C(c1ccccc1)c1ccccc1 (stereo not drawn) | 98.5 |
| N#Cc1c(NC(=O)c2cccc3ccccc23)sc2c1CCCC2 | 97.7 |
| CCN(CC)C(=O)c1ccc(Nc2nc(OCC3CCCCC3)c3[nH]cnc3n2)cc1 | 66.5 |
| CCN(CC)CCNC(=O)c1c(C)[nH]c(/C=C2\C(=O)Nc3ccc(F)cc32)c1C | 16.6 |
| Ic1cccc(CSc2nnc(-c3ccncc3)o2)c1 | 98.4 |
| N#C/C(=C\c1ccc(O)c(O)c1)C(=O)NCc1ccccc1 | 90.2 |
| COc1cc2ncnc(Nc3cccc(Cl)c3)c2cc1OC | 86.5 |
| CCOc1nc(NC(=O)Cc2cc(OC)ccc2OC)cc(N)c1C#N | 83.7 |
| CN([C@@H](Cc1ccc(OS(=O)(=O)c2cccc3cnccc23)cc1)C(=O)N1CCN(c2ccccc2)CC1)S(=O)(=O)c1cccc2cnccc12 | 99.2 |

Block 3 — effect on: cell-free assay; technique: competition with immobilised ligand; concentration: 1 µM
Structure (SMILES): CCC(=O)N[C@@H]1CC[C@H](C(=O)N(C)c2ccc(-c3nc4ccccc4o3)cc2)C1
| target | remaining binding [%] |
| --- | --- |
| Epidermal growth factor receptor (EGFR, Homo sapiens, UniProt P00533, del747-750/T751S) | 100 |
| Casein kinase II subunit alpha (CSNK2A1, Homo sapiens, UniProt P68400) | 98 |
| Cyclin-dependent kinase 15 (CDK15, Homo sapiens, UniProt Q96Q40) | 100 |
| Cyclin-dependent kinase 3 (CDK3, Homo sapiens, UniProt Q00526) | 100 |
| Serine/threonine-protein kinase WNK1 (WNK1, Homo sapiens, UniProt Q9H4A3) | 100 |
| Dual specificity protein kinase CLK4 (CLK4, Homo sapiens, UniProt Q9HAZ1) | 88 |
| Serine/threonine-protein kinase/endoribonuclease IRE1 (ERN1, Homo sapiens, UniProt O75460) | 100 |
| Serine/threonine-protein kinase 38 (STK38, Homo sapiens, UniProt Q15208) | 80 |
| Ephrin type-B receptor 3 (EPHB3, Homo sapiens, UniProt P54753) | 100 |
| Macrophage colony-stimulating factor 1 receptor, autoinhibited (CSF1R, Homo sapiens, UniProt P07333) | 100 |
| Glycogen synthase kinase-3 alpha (GSK3A, Homo sapiens, UniProt P49840) | 84 |
| Serine/threonine-protein kinase DCLK2 (DCLK2, Homo sapiens, UniProt Q8N568) | 89 |
| Hepatocyte growth factor receptor (MET, Homo sapiens, UniProt P08581, Y1235D) | 100 |
| Receptor tyrosine-protein kinase erbB-4 (ERBB4, Homo sapiens, UniProt Q15303) | 100 |
| SRSF protein kinase 2 (SRPK2, Homo sapiens, UniProt P78362) | 100 |
| SRSF protein kinase 1 (SRPK1, Homo sapiens, UniProt Q96SB4) | 100 |
| Ribosomal protein S6 kinase alpha-2, N-terminal kinase domain (RPS6KA2, Homo sapiens, UniProt Q15349) | 86 |
| Tyrosine-protein kinase ABL1, phosphorylated (ABL1, Homo sapiens, UniProt P00519, Y253F) | 95 |
| Serine/threonine-protein kinase TBK1 (TBK1, Homo sapiens, UniProt Q9UHD2) | 65 |
| Cyclin-dependent kinase 5 (CDK5, Homo sapiens, UniProt Q00535) | 100 |
| Homeodomain-interacting protein kinase 3 (HIPK3, Homo sapiens, UniProt Q9H422) | 76 |
| Serine/threonine-protein kinase Nek9 (NEK9, Homo sapiens, UniProt Q8TD19) | 100 |
| Tyrosine-protein kinase HCK (HCK, Homo sapiens, UniProt P08631) | 100 |
| Serine/threonine-protein kinase Nek2 (NEK2, Homo sapiens, UniProt P51955) | 100 |
| Phosphatidylinositol 4-phosphate 5-kinase type-1 gamma (PIP5K1C, Homo sapiens, UniProt O60331) | 100 |

Block 4 — effect on: enzyme activity; action: inhibitor; concentration: 10 µM
Target: Calcium/calmodulin-dependent protein kinase type II subunit alpha (CAMK2A, Homo sapiens, UniProt Q9UQM7)
Sequence of UniProt Q9UQM7 (whole entry, looked up): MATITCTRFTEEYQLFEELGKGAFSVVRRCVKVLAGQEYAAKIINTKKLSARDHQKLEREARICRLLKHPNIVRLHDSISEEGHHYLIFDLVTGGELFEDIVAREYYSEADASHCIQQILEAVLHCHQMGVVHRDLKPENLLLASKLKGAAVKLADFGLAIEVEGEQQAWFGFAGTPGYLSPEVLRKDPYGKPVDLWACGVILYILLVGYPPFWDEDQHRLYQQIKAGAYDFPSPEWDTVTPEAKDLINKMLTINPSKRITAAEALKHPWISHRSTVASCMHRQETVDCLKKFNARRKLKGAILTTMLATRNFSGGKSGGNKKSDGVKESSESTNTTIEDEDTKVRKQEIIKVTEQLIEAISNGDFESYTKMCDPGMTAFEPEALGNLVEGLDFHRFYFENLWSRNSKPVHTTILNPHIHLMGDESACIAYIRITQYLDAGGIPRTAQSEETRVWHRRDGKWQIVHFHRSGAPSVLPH
| Compound | inhibition |
| --- | --- |
| C[C@@H]1O[C@@H](O[C@@H]2[C@@H](O)[C@H](O)[C@@H](CO)O[C@H]2c2c(O)cc(O)c3c(=O)cc(-c4ccc(O)cc4)oc23)[C@H](O)[C@H](O)[C@H]1O | 5% |
| CO[C@@]1(NC(=O)C2SC(=C(C(N)=O)C(=O)O)S2)C(=O)N2C(C(=O)O)=C(CSc3nnnn3C)CS[C@@H]21 (stereo partly drawn) | -2% |
| O=C(O)CCCCC(=O)O | -22% |
| CCCc1cc(C(N)=S)ccn1 | 1% |
| CC(=O)O[C@@]1(C)C[C@@H](O)[C@]2(O)C=CO[C@@H](O[C@@H]3O[C@H](CO)[C@@H](O)[C@H](O)[C@H]3O)[C@@H]21 | -41% |
| CC(C)(C)CC(=O)OCC(=O)[C@@]12OC(C)(C)O[C@@H]1C[C@H]1[C@@H]3CCC4=CC(=O)C=C[C@]4(C)[C@@]3(F)[C@@H](O)C[C@@]12C | -2% |
| CC1(C)O[C@H]1COc1c2ccoc2cc2oc(=O)ccc12 | 14% |
| CC(C)NCC(O)c1cc(O)cc(O)c1 (stereo not drawn) | -8% |
| CC(C)C(=O)Nc1ccc([N+](=O)[O-])c(C(F)(F)F)c1 | -3% |
| N#C[C@@H]1C[C@@H]2C[C@@H]2N1C(=O)[C@@H](N)C12CC3CC(CC(O)(C3)C1)C2 | 4% |
| O=C1C2CC3CC1CC(O)(C3)C2 | -8% |
| N[C@@H](CS(=O)(=O)O)C(=O)O | -66% |
| COc1ccc(-c2oc3cc(OC)c(OC)c(O)c3c(=O)c2OC)cc1O | 5% |
| O=C(CO)CO | -4% |
| C[C@]12C=CC(=O)C=C1CC[C@@H]1[C@@H]2C(=O)C[C@@]2(C)[C@H]1CC[C@]2(O)C(=O)CO | -8% |
| Cn1ccc(=O)n(C)c1=O | 19% |
| Cc1oc(=O)oc1COC(=O)[C@@H]1N2C(=O)[C@@H](NC(=O)[C@H](N)c3ccccc3)[C@H]2SC1(C)C | -6% |
| CN1Cc2c(Cl)cc(Cl)cc2[C@H](c2cccc(S(=O)(=O)NCCOCCOCCNC(=O)NCCCCNC(=O)NCCOCCOCCNS(=O)(=O)c3cccc([C@@H]4CN(C)Cc5c(Cl)cc(Cl)cc54)c3)c2)C1 | -5% |
| CNCCCC1c2ccccc2C=Cc2ccccc21 | 3% |
